Measurements of several laboratories.
± gives the spread as reported.

SMILES	assay	system	conditions	how to read	endpoint	value
NC1(C(=O)N[C@@H](CCO)c2ccc(Cl)cc2)CCN(c2nc[nH]c3nccc2-3)CC1	LC-MS/MS, non-compartmental	human patients, plasma	160/480 mg cohort, cycle 0, geometric mean, added: enzalutamide		Tmax	2.3 h
COc1c(N2C[C@@H]3CCCN[C@@H]3C2)c(F)cc2c(=O)c(C(=O)O)cn(C3CC3)c12		male Hartley guinea pigs, anaesthetized	intravenous, 5 mg/kg group, baseline before infusion		heart rate	264 ± 0.6 beats/min
C[C@@H](N)C1CCN(S(=O)(=O)c2cccc3cnccc23)CC1		healthy volunteers	25 mg and 250 mg combined, fasted		treatment-related TEAEs	33.3%
CN(C(=O)n1cnc(-c2cccnc2)c1)C1CCCCC1		Wistar rat, pons	oral, 10 mg/kg, 24 h, single dose		tissue concentration	8 ± 0.1 ng/g
COc1ccc(C#N)cc1-c1c[nH]c2ncc(-c3cncc(C(=O)N(C)C)c3)cc12	HPLC		50 µM, 37 °C, no lysine, followed to 24 h		hydrolytic half-life	> 24 h
COc1ccc2[nH]c([S+]([O-])Cc3ncc(C)c(OC)c3C)nc2c1 (centres unmarked)	LC-MS/MS	healthy Chinese, CYP2C19*3 AA, plasma	oral, 20 mg		Cmax	0.884 ± 0.575 µg/mL
Cc1cc(NC2CCN(C(=O)OC3CCN(C(=O)/C=C/CN(C)C)C3)CC2)n2ncc(C(C)C)c2n1 (centres unmarked)		patients with advanced solid tumours	dose not given, TIW arm, any grade		patients with adverse events	91%
CNC(=O)c1ccc(-c2cnc3ncc(Cc4ccc5ncccc5c4)n3n2)cc1F		other cancer patients	oral, 600 mg twice daily, all grades RP2D expansion		AST increased incidence	11%
CNc1ccc(-c2nc3ccc(O)cc3s2)cc1 [carbon-11 labelled]	ex vivo biodistribution	normal B6SJL mice, brain stem	intravenous, 30 min		uptake	0.241 ± 0.05 SUV
Cc1nc2cccc(OCC(C)(C)C(=O)NC(C)C)c2c(N)c1C(=O)O		male Sprague-Dawley rat, plasma	dietary, 30 mg/kg/day	relative to: day 90 over day 7	Cmax ratio	2.54
O=C1NCCc2nc(OCc3cccc(F)c3)ccc21	modified Irwin test	Sprague-Dawley rat, male	oral, 100 mg/kg, 1 h	higher = stronger effect	leg weakness score	0
CNCCOC12CC3(C)CC(C)(CC(Cn4ncc(-c5ccc(N6CCc7cccc(C(=O)Nc8nc9ccccc9s8)c7C6)nc5C(=O)O)c4C)(C3)C1)C2		beagle dog, male, anaesthetised	intravenous bolus, 0.03 mg/kg, 15 min	relative to: baseline	heart rate change	9%
COc1cc(C(=O)O)ccc1O		human CSF	concentration not given, mean		CSF concentration	not detected
N#Cc1ccc2c(c1)[C@H]1CCCN(C(=O)c3ccc4[nH]cnc4c3)[C@H]1C2		human, plasma	20 mg once daily, day 7		pre-dose plasma concentration	506 nmol/L
COc1cc(Nc2ncc3c(n2)-c2ccc(Cl)cc2C(c2c(F)cccc2OC)=NC3)ccc1C(=O)O		patients	oral, dose not given, grade 1, any attribution, added: pembrolizumab		decreased platelet count incidence	21%
C[C@@H](O)CCOC(=O)C[C@@H](C)O		human	oral drink, dose not given, 120 min post dose, mean		systolic blood pressure	112 mmHg
Cc1cccc(C)c1OCC(=O)N[C@@H](Cc1ccccc1)[C@@H](O)C[C@H](Cc1ccccc1)NC(=O)[C@H](C(C)C)N1CCCNC1=O		50 mM phosphate buffer, 100 µg/mL HPMCAS	pH 6.5, 37 °C, average of three methods		amorphous solubility	0.0172 mg/mL
COc1ncc(-c2nc3c(n2C(C)C)[C@H](c2ccc(Cl)cc2)N(c2cc(Cl)cn(C)c2=O)C3=O)c(OC)n1	LC-MS/MS	human, plasma	oral, 4 mg, cycle 1 day 14, low-dose arm		AUC(0-last)	0.155 µg·h/mL
CC(C)(C)c1ccc(O)c(CN(Cc2cc(C(C)(C)C)ccc2O)C2CCC(NC(N)=O)CC2)c1 (centres unmarked)		human liver microsomes	5 ng/mL, 3 months, -20 °C, long-term storage		recovery	98.9 ± 2.76%

SMILES	assay	system	conditions	how to read	endpoint	value
O=C1CCc2ccc(OCCCCN3CCN(c4cccc(Cl)c4Cl)CC3)cc2N1		CYP2D6 ultrarapid metabolizers	concentration not given, genotype-based phenotype, long-acting oral or depot		cardiovascular symptom frequency	15%
COc1ccc2nc([S@@+]([O-])Cc3ncc(C)c(OC)c3C)[nH]c2c1		human male, dried plasma spots	oral, 5 mg racemic omeprazole, added: fluvoxamine and voriconazole		AUC(0-8 h)	1750 nM·h
O=C(Oc1coc(CSc2ncccn2)cc1=O)c1ccc([N+](=O)[O-])cc1		mouse liver microsomes	5 min, added: with or without NADPH		parent compound detection	not detected
CN1C[C@H](COc2nccc3c(NCc4ccco4)cc(Cl)nc23)OC1=O		rabbit NZW female, isolated Langendorff heart	3 µM, 15 min		heart rate	145 beats/min
Cc1nc2ccc(OCc3ccc(C(F)(F)F)cc3)cc2[nH]1		Balb/c mice, male, plasma	oral, 10 mg/kg		terminal elimination rate constant	2.78e-05 ± 2.78e-05 s⁻¹
Cc1cc(-c2nccc3c2ccn3CC(=O)Nc2ccc(-c3cnccn3)cn2)ccn1		healthy human volunteers	oral, 20 mg single dose, single ascending dose		respiratory thoracic mediastinal TEAEs	0%
Cl.[2H]C([2H])([2H])CC(=O)c1cnc(NC(=O)C2CC2)cc1Nc1cccc(-c2ncn(C([2H])([2H])[2H])n2)c1OC	geometric mean	human	oral, 25 mg single dose, fasted, liquid		AUC(0-inf)	2.14 µg·h/mL
COc1ccc([C@@H](O)c2cc(-c3ncnc4cc(N5CCOCC5)ccc34)c(F)cc2Cl)nn1		locally advanced rectal cancer patients	100 mg, added: capecitabine and radiotherapy		anaemia TEAE incidence	17%
COc1cc2nccc(Oc3ccc(NC(=O)c4cc5c(n(-c6ccccc6)c4=O)CCCC5=O)nc3)c2cc1OC		patients with relapsed/refractory AML	oral, 10 mg once daily		TEAEs leading to interruption	28.6%
COc1ccc(CCC(=O)O)cc1OS(=O)(=O)O		human CSF	concentration not given, mean		CSF concentration	not detected
CCOCc1nc(O)c(-c2nnc(Cc3ccc(Cl)cn3)o2)c(O)c1-c1c(OC)cccc1OC		rat, anaesthetised, cannulated, plasma	intravenous infusion, 100 µg/kg/min, 5 min		plasma concentration	8.17 µM
O=C(O)CCC(=O)O.[2H]C([2H])([2H])Oc1cc(C)c2[nH]ccc2c1CN1CC[C@@H](C2CC2)C[C@H]1c1ccc(C(=O)O)cc1	multiple ascending dose	healthy Chinese subjects	50 mg twice daily		subjects with neutropenia	0%
CCN(c1cc(-c2ccc(CN3CCOCC3)cc2)cc(C(=O)NCc2c(C)cc(C)[nH]c2=O)c1C)C1CCOCC1		mouse xenograft, heart	dose not given		organ weight	112 mg
CCOc1c([C@H](C)n2nc(C)c3c(N)ncnc32)cc(Cl)c(F)c1[C@@H]1CNC(=O)C1		human Hodgkin lymphoma patients	oral, 30 mg, day 15		Cmax	2.26 µM
CCC(C)n1ncn(-c2ccc(N3CCN(c4ccc(OCC5COC(Cn6cncn6)(c6ccc(Cl)cc6Cl)O5)cc4)CC3)cc2)c1=O (centres unmarked)		healthy human volunteers	oral, 200 mg, compound alone cohort		incidence of gastrointestinal disorders	7%
C=CC(=O)NC1CCN(c2ncc3ncnc(Nc4ccc(Oc5ccc6c(c5)ncn6C)c(C)c4)c3n2)CC1		healthy male volunteers, plasma	oral solution, 60 mg, up to last quantifiable time, 14C-labelled		parent share of total radioactivity	59.5%
C[C@@H](Nc1cc(F)cc(F)c1)c1cc(C(=O)N(C)C)cc2c(=O)cc(N3CCOCC3)oc12	refers to: alanine aminotransferase increased	patients with advanced solid tumours	oral, dose not given, dose finding phase I		treatment-related serious adverse events	1.6%
C[C@@H](Oc1ccc(S(C)(=O)=O)cc1C(=O)N1C[C@@H]2C[C@]2(c2cc(C(F)(F)F)on2)C1)C(F)(F)F		human	oral, 25 mg		incidence of Headache	50%
O=C(CCCN1CC=C(n2c(=O)[nH]c3ccccc32)CC1)c1ccc(F)cc1		male Hartley guinea pigs, anaesthetized	intravenous, 0.1 mg/kg over 10 min, after infusion		heart rate	224 ± 0.9 beats/min

SMILES	assay	system	conditions	how to read	endpoint	value
CCn1c(C(=O)N(C2CC2)C2CC2)cc2c3c(ncn3C)c(Nc3cc(C)n(C)n3)nc21		cancer patients	oral, 200 mg single dose, day 1, 24.0 h		plasma concentration	0.181 µg/mL
O=S(=O)(O)Oc1ccc(CCO)cc1		human CSF	concentration not given, mean		CSF concentration	not detected
CCc1cc(C(=O)NC)c2nccc(N3CCc4c(cc(Cn5ccnc5)cc4-c4cn(C)nc4C(F)(F)F)C3=O)c2c1		Sprague Dawley rat	oral, 100 mg/kg once daily, day 7, 7-day toxicology study		body weight	265 ± 3.9 g
N#Cc1ccc2c(c1)[C@H]1CCCN(C(=O)c3ccc4[nH]cnc4c3)[C@H]1C2		human	360 mg, end of trial	relative to: baseline	cortisol level change	-35 nmol/L
CC(C)n1c(Nc2cccnc2)nc2cnc(Nc3ccc(N4CCN(C)CC4)cc3)nc21	refers to: γ-glutamyltransferase increased	healthy male subjects	oral, 100 mg, study, added: itraconazole		subjects with adverse event	7.1%
CCN1/C(=C/C(C)=O)Sc2ccc(F)cc21		cynomolgus monkey	oral, 100 mg/kg, 6 h post-dose		PR interval	93 ± 6 ms
C=CC(=O)N1CCC[C@@H](n2nc(-c3ccc(Oc4ccccc4)cc3)c3c(N)ncnc32)C1	USP type II dissolution	powder	120 min, pH 1.2		dissolved amount	49.1%
CC(C)(C)c1ccc(C(O)CCCN2CCC(C(O)(c3ccccc3)c3ccccc3)CC2)cc1 (centres unmarked)		male Hartley guinea pigs, anaesthetized	intravenous, 0.3 mg/kg group, baseline before infusion		heart rate	218 ± 0.2 beats/min
Cc1c(Cl)c(C)[n+]([O-])c(Cl)c1-c1noc(-c2cc(O)c(O)c([N+](=O)[O-])c2)n1		healthy Chinese subjects	oral, 50 mg, 10 days		TEAEs causing discontinuation	0%
CCN(CC)Cc1ccc(CNC(=O)c2csc3nc[nH]c(=O)c23)cc1	haemolysis	human red blood cells	1 h, 37 °C		EC50	> 100 µM
Cn1cnc2c(F)c(Nc3ccc(Br)cc3Cl)c(C(=O)NOCCO)cc21		human, plasma	oral, dose not given, sequential zero-first-order absorption		peripheral volume of distribution	70.4 L
CC(=O)c1cc(C(=O)N[C@@H](C)Cn2ccc(-c3ccc(C#N)c(Cl)c3)n2)[nH]n1		human			intravenous clearance	1.8 L/h
Cc1cc(C)c(CNC(=O)c2cc(Cl)c3c(c2C)O[C@@](C)([C@H]2CC[C@H](N(C)C)CC2)O3)c(=O)[nH]1		relapsed/refractory NHL patients	oral, 200 mg once daily, onset after cycle 1 day 1		adverse event Pruritus	16.7%
CCCCCCC#Cc1cncc(-c2nnc(SCc3ccc(Cl)c(F)c3)n2C)c1		African green monkey cells	72 h		CC50	> 125 µM
Cc1ccc([C@@H]2O[C@H](CO)[C@@H](O)[C@H](O)[C@H]2O)cc1Cc1ccc(-c2ccc(F)cc2)s1		Japanese type 2 diabetes patients	200 mg, day 3, 24 h urine collection	relative to: baseline	urinary sodium excretion change	15.6 mEq
FC(F)(F)c1ccc(CNc2ccc(Cc3c[nH]c4ncc(Cl)cc34)cn2)cn1	refers to: mucosal inflammation	human, advanced solid tumours, non-TGCT cohort	oral, 1000 mg/day, grade 3 or higher		treatment-related adverse events	0%
OC[C@H](Cc1cccc(O)c1)[C@H](CO)Cc1cccc(O)c1		human CSF	concentration not given, mean		CSF concentration	not detected
CN(CCCN1CCN(C(=O)CN2CCN(CC(=O)[O-])CCN(CC(=O)[O-])CCN(CC(=O)[O-])CC2)CC1)c1ccc2nccc(C(=O)NCC(=O)N3CC(F)(F)C[C@H]3C#N)c2c1.[68Ga+3]		mice, HT-1080.hFAP and HT-1080 wild-type xenografts, stomach	iv, 500 pmol, 1 h post injection		uptake	0.3 ± 0.1 %IA/g

Some of these lines once more:
SMILES	assay	system	conditions	how to read	endpoint	value
CCC(C)n1ncn(-c2ccc(N3CCN(c4ccc(OCC5COC(Cn6cncn6)(c6ccc(Cl)cc6Cl)O5)cc4)CC3)cc2)c1=O (centres unmarked)		healthy human volunteers	oral, 200 mg, compound alone cohort		incidence of gastrointestinal disorders	7%
O=C(O)CCC(=O)O.[2H]C([2H])([2H])Oc1cc(C)c2[nH]ccc2c1CN1CC[C@@H](C2CC2)C[C@H]1c1ccc(C(=O)O)cc1	multiple ascending dose	healthy Chinese subjects	50 mg twice daily		subjects with neutropenia	0%
C[C@@H](Oc1ccc(S(C)(=O)=O)cc1C(=O)N1C[C@@H]2C[C@]2(c2cc(C(F)(F)F)on2)C1)C(F)(F)F		human	oral, 25 mg		incidence of Headache	50%
Cc1nc2cccc(OCC(C)(C)C(=O)NC(C)C)c2c(N)c1C(=O)O		male Sprague-Dawley rat, plasma	dietary, 30 mg/kg/day	relative to: day 90 over day 7	Cmax ratio	2.54
